Experimental data gathered from unrelated publications.
Each line is one published result; not all experiments were run side by side.
Organism: Klebsiella pneumoniae

Structure (SMILES) | test | system | conditions | MIC
CN(C)c1ccc(O)c2c1C[C@H]1C[C@H]3[C@H](N(C)C)C(O)=C(C(N)=O)C(=O)[C@@]3(O)C(O)=C1C2=O | broth microdilution | NCTC 13438 | 24 h, 5% CO2 | 4 µg/mL
N#Cc1ccc2[nH]c(CNCC34CC5CC(CC(C5)C3)C4)nc2c1 |  | ATCC 700603 |  | > 128 µg/mL
CCN1CCN(C(=O)N[C@@H](C(=O)N[C@@H]2C(=O)N3[C@@H]2SC(C)(C)[C@@H]3C(=O)O)c2ccccc2)C(=O)C1=O | broth microdilution | clinical isolate, Mueller-Hinton broth | 24 h, 37 °C | 200 µM
O=C(Cc1ccccc1)N[C@@H]1C(=O)N2C(C(=O)O)=C(CSc3cccc4cccnc34)C[S+]([O-])[C@H]12 (some centres unmarked) |  | 11228 |  | 16 µg/mL
C[C@@H](O)[C@H]1C(=O)N2C(C(=O)O)=C(SCCN=CN)C[C@H]12 | broth microdilution | NCTC 13438 | 24 h, ambient air | 128 µg/mL
C[C@H]1COc2c(N3CCN(C)CC3)c(F)cc3c(=O)c(C(=O)O)cn1c23 | broth microdilution | KP | 18 h | 8 µg/mL
[H]/N=C(/N)N[C@H]1[C@H](O)[C@@H](O)[C@H](O[C@@H]2O[C@@H](C)[C@](O)(C=O)[C@H]2O[C@@H]2O[C@@H](CO)[C@H](O)[C@@H](O)[C@@H]2NC)[C@@H](N/C(N)=N\[H])[C@@H]1O |  | ALE CTX-M-15, Mueller Hinton broth | overnight, 37 °C | > 512 µg/mL
CC[C@H](C)CCCCC(=O)N[C@@H](CCN)C(=O)N[C@H](C(=O)N[C@@H](CCN)C(=O)N[C@H]1CCNC(=O)[C@H]([C@@H](C)O)NC(=O)[C@H](CCN)NC(=O)[C@H](CCN)NC(=O)[C@H](CC(C)C)NC(=O)[C@@H](CC(C)C)NC(=O)[C@H](CCN)NC1=O)[C@@H](C)O | broth microdilution | ATCC 27736, cation-adjusted Mueller-Hinton broth | 18 to 20 h, 37 °C, 0.002% polysorbate 80 | 0.25 µg/mL
O=C(O)c1cn(C2CC2)c2cc(N3CCNCC3)c(F)cc2c1=O |  | ALE CTX-M-15, Mueller Hinton broth | overnight, 37 °C | > 512 µg/mL
N=C(N)c1ccc(OCc2ccc(Br)cc2COc2ccc(C(=N)N)cc2)cc1 |  | ATCC 13883 | compound alone | > 200 µg/mL
NC(=O)[C@@H]1CC[C@@H]2CN1C(=O)N2OS(=O)(=O)O |  | 17-29 ESBL | compound alone | 32 µg/mL
O=C(O)c1ccc(NCc2cccc(C(F)(F)F)c2)cc1 | broth microdilution |  |  | 256 µg/mL
CC(C)C[C@@H]1NC(=O)[C@@H](Cc2ccccc2)NC(=O)[C@H](CCN)NC(=O)[C@@H](NC(=O)[C@H](CCN)NC(=O)[C@@H](N)[C@@H](C)O)CCNC(=O)[C@H]([C@@H](C)O)NC(=O)[C@H](CCN)NC(=O)[C@H](CCN)NC1=O |  | ATCC 13883 | in combination, checkerboard, with: rifampicin | 3.13 µg/mL
CN(C)c1cc(NC(=O)CNC(C)(C)C)c(O)c2c1C[C@H]1C[C@H]3[C@H](N(C)C)C(O)=C(C(N)=O)C(=O)[C@@]3(O)C(O)=C1C2=O | broth microdilution | ATCC 43816 acrAB knockout |  | < 0.5 µg/mL
Cc1cc(NS(=O)(=O)c2ccc(N)cc2)no1 | broth microdilution | NCTC 13438 | 24 h, 5% CO2 | > 512 µg/mL
O=C(Cc1ccccc1)N[C@@H]1C(=O)N2C(C(=O)O)=C(CSc3cccc4cccnc34)CS(=O)(=O)[C@H]12 |  | 11228 |  | 32 µg/mL
Cc1cc(-c2cn[nH]c2-c2cccc(OCc3cccc(C#N)c3)c2)cc(C)n1 | broth microdilution | ATCC BAA-1705 |  | 4 µg/mL
CN(C)c1ccc(O)c2c1C[C@H]1C[C@H]3[C@H](N(C)C)C(O)=C(C(N)=O)C(=O)[C@@]3(O)C(O)=C1C2=O | broth microdilution | ATCC 43816 acrAB knockout |  | < 0.5 µg/mL
O=C(N[C@H](CO)[C@H](O)c1ccc([N+](=O)[O-])cc1)C(Cl)Cl | broth microdilution | NCTC 13438 | 24 h, 5% CO2 | 32 µg/mL
CO/N=C(\C(=O)N[C@@H]1C(=O)N2C(C(=O)O)=C(COC(C)=O)CS[C@H]12)c1csc(N)n1 |  | ALE, CTX-M-15, Mueller-Hinton broth | overnight, 37 °C | 8 µg/mL
CC[C@H](C)[C@H](NC(=O)[C@H](CCCCN)NC(=O)[C@H](CCC(=O)O)NC(=O)[C@H](CCCCN)NC(=O)[C@H](CO)NC(=O)[C@H](CCCCN)NC(=O)[C@H](CCCNC(=N)N)NC(=O)[C@H](Cc1ccccc1)NC(=O)[C@H](Cc1ccccc1)NC(=O)[C@H](CC(=O)O)NC(=O)CNC(=O)[C@H](CC(C)C)NC(=O)[C@@H](N)CC(C)C)C(=O)NCC(=O)N[C@@H](CCCCN)C(=O)N[C@@H](CCC(=O)O)C(=O)N[C@@H](Cc1ccccc1)C(=O)N[C@@H](CCCCN)C(=O)N[C@@H](CCCNC(=N)N)C(=O)N[C@H](C(=O)N[C@H](C(=O)N[C@@H](CCC(N)=O)C(=O)N[C@@H](CCCNC(=N)N)C(=O)N[C@H](C(=O)N[C@@H](CCCCN)C(=O)N[C@@H](CC(=O)O)C(=O)N[C@@H](Cc1ccccc1)C(=O)N[C@@H](CC(C)C)C(=O)N[C@@H](CCCNC(=N)N)C(=O)N[C@@H](CC(N)=O)C(=O)N[C@@H](CC(C)C)C(=O)N[C@H](C(=O)N1CCC[C@H]1C(=O)N[C@@H](CCCNC(=N)N)C(=O)N[C@H](C(=O)N[C@@H](CCC(=O)O)C(=O)N[C@@H](CO)C(=O)O)[C@@H](C)O)C(C)C)[C@@H](C)CC)C(C)C)[C@@H](C)CC |  | ATCC 43823 | highest concentration 50 µM | 16.7 µM
CO/N=C(\C(=O)N[C@@H]1C(=O)N2C(C(=O)O)=C(CSc3nc(=O)c(=O)[nH]n3C)CS[C@H]12)c1csc(N)n1 |  | DOU CTX-M-15, Mueller Hinton broth | overnight, 37 °C | > 512 µg/mL

Structure (SMILES) | test | system | conditions | MIC
CC(C)(O/N=C(\C(=O)N[C@@H]1C(=O)N2C(C(=O)[O-])=C(C[n+]3ccccc3)CS[C@H]12)c1csc(N)n1)C(=O)O | broth microdilution | ATCC 43816 acrAB knockout |  | < 0.5 µg/mL
CNC(C)C1CCC(N)C(OC2C(N)CC(N)C(OC3OCC(C)(O)C(NC)C3O)C2O)O1 (centres unmarked) |  | 9908, RPMI 1640 10% FBS | 18 to 24 h, 37 °C | 12.5 µM
CNC(C)C1CCC(N)C(OC2C(N)CC(N)C(OC3OCC(C)(O)C(NC)C3O)C2O)O1 (centres unmarked) | broth microdilution | BNCC 359393 |  | > 64 µg/mL
[H]/N=C(/N)N[C@H]1[C@H](O)[C@@H](O)[C@H](O[C@@H]2O[C@@H](C)[C@](O)(C=O)[C@H]2O[C@@H]2O[C@@H](CO)[C@H](O)[C@@H](O)[C@@H]2NC)[C@@H](N/C(N)=N\[H])[C@@H]1O | broth microdilution | ATCC 43816 acrAB knockout |  | 2 µg/mL
C[C@H]1[C@H](NC(=O)/C(=N\OC(C)(C)C(=O)O)c2csc(N)n2)C(=O)N1S(=O)(=O)O | agar dilution | 16-14 ESBL |  | 4 µg/mL
CC[C@H]1OC(=O)[C@H](C)[C@@H](O[C@H]2C[C@@](C)(OC)[C@@H](O)[C@H](C)O2)[C@H](C)[C@@H](O[C@@H]2O[C@H](C)C[C@H](N(C)C)[C@H]2O)[C@](C)(O)C[C@@H](C)CN(C)[C@H](C)[C@@H](O)[C@]1(C)O | broth microdilution | BNCC 359393 |  | > 64 µg/mL
NC[C@H]1O[C@H](O[C@H]2[C@H](O)[C@@H](O[C@H]3O[C@H](CO)[C@@H](O)[C@H](N)[C@H]3O)[C@H](N)C[C@@H]2N)[C@H](O)[C@@H](O)[C@@H]1O | broth microdilution | ATCC 43816 |  | 1.72 µM
Cc1c(CN(C)C(=O)/C=C/c2cnc3c(c2)CC(NC(=O)OC(C)(C)C)C(=O)N3)oc2ccccc12 (centres unmarked) | broth microdilution | AR-0542 |  | > 32 µg/mL
O=C(O)c1ccc(NCc2ccc(Cl)cc2)cc1 | broth microdilution |  |  | 64 µg/mL
Cc1c(CN(C)C(=O)/C=C/c2cnc3c(c2)CCC(=O)N3)oc2ccccc12 | broth microdilution | S20595 |  | > 32 µg/mL
COc1cccc(CNc2ccc(C(=O)O)cc2)c1OC | broth microdilution |  |  | 64 µg/mL
CNC(C)C1CCC(N)C(OC2C(N)CC(N)C(OC3OCC(C)(O)C(NC)C3O)C2O)O1 (centres unmarked) | broth microdilution | NCTC 13438 | 24 h, 5% CO2 | 4 µg/mL
COc1ccccc1CNc1ccc(C(=O)O)cc1 | broth microdilution |  |  | 64 µg/mL
N=C(N)c1ccc(OCc2cc(COc3ccc(C(=N)N)cc3)cc(-c3ccccc3)c2)cc1 |  | ATCC 13883 | compound alone | > 200 µg/mL
O=C(O)c1ccc(NCc2cccc(O)c2)cc1 | broth microdilution |  |  | 64 µg/mL
CN[C@@H]1[C@@H](O[C@H]2O[C@H](CO)[C@@H](N)[C@H](O)[C@H]2O)OC2C[C@@H](N)[C@@H](O[C@H]3[C@H](O)[C@@H](O)[C@H](N)C[C@@H]3N)OC2[C@@H]1O (some centres unmarked) | broth microdilution | NCTC 13438 | 24 h, 5% CO2 | 4 µg/mL
C[C@H]1COc2c(N3CCN(C)CC3)c(F)cc3c(=O)c(C(=O)O)cn1c23 | agar dilution | ATCC 700603 ESBL |  | 0.5 µg/mL
Cc1onc(-c2ccccc2)c1C(=O)N[C@@H]1C(=O)N2[C@@H]1SC(C)(C)[C@@H]2C(=O)O |  | ALE CTX-M-15, Mueller Hinton broth | overnight, 37 °C | > 512 µg/mL
CC(C)(O/N=C(\C(=O)N[C@@H]1C(=O)N2C(C(=O)[O-])=C(C[n+]3ccccc3)CS[C@H]12)c1csc(N)n1)C(=O)O | broth microdilution | KP | 18 h | 8 µg/mL
CC(C)(CN)CNCc1nc2ccccc2n1CCOc1ccccc1 |  | ATCC 700603 |  | 64 µg/mL
CO/N=C(\C(=O)N[C@@H]1C(=O)N2C(C(=O)O)=C(COC(C)=O)CS[C@H]12)c1csc(N)n1 | broth microdilution | clinical isolate, Mueller-Hinton broth | 24 h, 37 °C | 100 µM
C[C@H]1COc2c(N3CCN(C)CC3)c(F)cc3c(=O)c(C(=O)O)cn1c23 | broth microdilution | NCTC 13438 | 24 h, 5% CO2 | 128 µg/mL
